Published values from different studies.
Lines come from different studies, so protocols differ. ± marks the error that the study gave. No end group written: not given here.
B1: POL30 (Saccharomyces cerevisiae, UniProt P15873); Cy3 label; sequence looked up; chain MLEAKFEEASLFKRIIDGFKDCVQLVNFQCKEDGIIAQAVDDSRVLLVSLEIGVEAFQEYRCDHPVTLGMDLTSLSKILRCGNNTDTLTLIADNTPDSIILLFEDTKKDRIAEYSLKLMDIDADFLKIEELQYDSTLSLPSSEFSKIVRDLSQLSDSINIMITKETIKFVADGDIGSGSVIIKPFVDMEHPETSIKLEMDQPVDLTFGAKYLLDIIKGSSLSDRVGIRLSSEAPALFQFDLKSGFLQFFLAPKFNDEE
B2: UGT1A9 (Homo sapiens, UniProt O60656); chain GKLLVVPMDGSHWFTMRSVVEKLILRGHEVVVVMPEVSWQLGRSLNCTVKTYSTSYTLEDLDREFKAFAHAQWKAQVRSIYSLLMGSYNDIFDLFFSNCRSLFKDKKLVEYLKESSFDAVFLDPFDNCGLIVAKYFSLPSVVFARGILCHYLEEGAQCPAPLSYVPRILLGFSDAMTFKERVRNHIMHLEEHLLCHRFFKNALEIASEILQTPVTEYDLYSHTSIWLLRTDFVLDYPKPVMPNMIFIGGINCHQGKPLPMEFEAYINASGEHGIVVFSLGSMVSEIPEKKAMAIADALGKIPQTVLWRYTGTRPSNLANNTILVKWLPQNDLLGHPMTRAFITHAGSHGVYESICNGVPMVMMPLFGDQMDNAKRMETKGAGVTLNVLEMTSEDLENALKAVINDKSYKENIMRLSSLHKDRPVEPLDLAVFWVEFVMRHKGAPHLRPAAHDLTWYQYHSLDVIGFLLAVVLTVAFITFKCCAYGYRKCLGKKGRVKKAHKSKTH
B3: ATG3 residues 24-88, 192-314 (Homo sapiens, UniProt Q9NT62); chain KESKFKETGVITPEEFVAAGDHLVHHCPTWQWATGEELKVKAYLPTGKQFLVTKNVPCYKRCKQMDAILQTRTYDLYITYDKYYQTPRLWLFGYDEQRQPLTVEHMYEDISQDHVKKTVTIENHPHLPPPPMCSVHPCRHAEVMKKIIETVAEGGGELGVHMYLLIFLKFVQAVIPTIEYDYTRHFTM
B4: VCL 879-1066 (Homo sapiens, UniProt P18206-2); sequence looked up; chain EEKDEEFPEQKAGEVINQPMMMAARQLHDEARKWSSKGNDIIAAAKRMALLMAEMSRLVRGGSGTKRALIQCAKDIAKASDEVTRLAKEVAKQCTDKRIRTNLLQVCERIPTISTQLKILSTVKATMLGRTNISDEESEQATEMLVHNAQNLMQSVKETVREAEAASIKIRTDAGFTLRWVRKTPWYQ
Sequence of UniProt P31266 (whole entry, looked up): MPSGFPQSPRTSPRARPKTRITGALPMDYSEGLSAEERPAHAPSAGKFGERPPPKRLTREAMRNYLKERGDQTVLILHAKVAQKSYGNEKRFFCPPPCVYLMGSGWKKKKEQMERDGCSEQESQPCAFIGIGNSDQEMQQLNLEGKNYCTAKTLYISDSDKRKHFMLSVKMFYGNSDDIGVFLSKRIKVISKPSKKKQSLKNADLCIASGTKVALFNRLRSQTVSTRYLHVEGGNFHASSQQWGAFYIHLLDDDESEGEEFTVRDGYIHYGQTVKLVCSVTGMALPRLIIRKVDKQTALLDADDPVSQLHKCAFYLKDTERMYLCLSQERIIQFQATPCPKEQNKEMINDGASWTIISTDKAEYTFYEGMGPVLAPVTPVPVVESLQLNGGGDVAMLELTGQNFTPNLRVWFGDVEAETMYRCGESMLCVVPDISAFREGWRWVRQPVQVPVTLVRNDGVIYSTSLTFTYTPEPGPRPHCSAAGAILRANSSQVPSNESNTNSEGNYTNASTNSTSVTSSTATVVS
Sequence of UniProt Q06609 (whole entry, looked up): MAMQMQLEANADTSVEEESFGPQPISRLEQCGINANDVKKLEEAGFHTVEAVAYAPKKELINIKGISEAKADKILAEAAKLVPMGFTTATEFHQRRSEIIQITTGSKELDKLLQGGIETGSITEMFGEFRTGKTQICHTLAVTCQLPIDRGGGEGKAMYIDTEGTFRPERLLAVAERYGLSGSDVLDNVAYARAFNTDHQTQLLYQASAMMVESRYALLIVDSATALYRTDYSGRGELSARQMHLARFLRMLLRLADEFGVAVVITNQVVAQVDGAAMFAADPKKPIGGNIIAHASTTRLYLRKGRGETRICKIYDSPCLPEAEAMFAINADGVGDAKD
Sequence of UniProt P23458 (whole entry, looked up): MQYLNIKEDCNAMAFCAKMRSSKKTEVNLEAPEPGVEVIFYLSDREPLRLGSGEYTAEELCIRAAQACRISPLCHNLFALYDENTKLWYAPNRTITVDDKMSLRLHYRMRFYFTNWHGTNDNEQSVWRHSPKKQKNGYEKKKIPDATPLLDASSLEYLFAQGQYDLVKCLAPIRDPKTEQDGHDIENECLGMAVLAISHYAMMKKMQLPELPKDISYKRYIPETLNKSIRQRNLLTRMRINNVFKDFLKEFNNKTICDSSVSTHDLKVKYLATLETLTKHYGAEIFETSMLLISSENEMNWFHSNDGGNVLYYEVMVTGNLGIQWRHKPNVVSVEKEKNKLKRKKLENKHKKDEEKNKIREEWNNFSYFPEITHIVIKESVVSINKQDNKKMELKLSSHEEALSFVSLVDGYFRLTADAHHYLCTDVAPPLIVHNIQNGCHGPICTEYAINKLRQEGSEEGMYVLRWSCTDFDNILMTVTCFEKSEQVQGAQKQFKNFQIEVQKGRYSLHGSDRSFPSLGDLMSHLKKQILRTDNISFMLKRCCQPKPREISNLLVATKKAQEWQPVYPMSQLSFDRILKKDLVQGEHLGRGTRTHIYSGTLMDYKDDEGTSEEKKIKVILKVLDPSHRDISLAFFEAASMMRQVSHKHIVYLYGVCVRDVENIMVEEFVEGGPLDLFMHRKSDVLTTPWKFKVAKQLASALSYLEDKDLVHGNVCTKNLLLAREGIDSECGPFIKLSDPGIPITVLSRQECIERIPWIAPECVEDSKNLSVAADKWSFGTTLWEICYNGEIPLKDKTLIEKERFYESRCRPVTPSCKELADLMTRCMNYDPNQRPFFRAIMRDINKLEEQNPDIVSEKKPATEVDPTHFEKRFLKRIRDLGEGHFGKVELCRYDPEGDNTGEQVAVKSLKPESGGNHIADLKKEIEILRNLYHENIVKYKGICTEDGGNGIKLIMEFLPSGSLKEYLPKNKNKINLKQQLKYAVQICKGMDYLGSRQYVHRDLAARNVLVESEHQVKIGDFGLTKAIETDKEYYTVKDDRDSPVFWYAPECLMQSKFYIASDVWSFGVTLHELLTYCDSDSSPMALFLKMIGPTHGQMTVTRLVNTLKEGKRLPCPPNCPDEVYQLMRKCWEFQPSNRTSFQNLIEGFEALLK
Sequence of UniProt Q8NFZ0 (whole entry, looked up): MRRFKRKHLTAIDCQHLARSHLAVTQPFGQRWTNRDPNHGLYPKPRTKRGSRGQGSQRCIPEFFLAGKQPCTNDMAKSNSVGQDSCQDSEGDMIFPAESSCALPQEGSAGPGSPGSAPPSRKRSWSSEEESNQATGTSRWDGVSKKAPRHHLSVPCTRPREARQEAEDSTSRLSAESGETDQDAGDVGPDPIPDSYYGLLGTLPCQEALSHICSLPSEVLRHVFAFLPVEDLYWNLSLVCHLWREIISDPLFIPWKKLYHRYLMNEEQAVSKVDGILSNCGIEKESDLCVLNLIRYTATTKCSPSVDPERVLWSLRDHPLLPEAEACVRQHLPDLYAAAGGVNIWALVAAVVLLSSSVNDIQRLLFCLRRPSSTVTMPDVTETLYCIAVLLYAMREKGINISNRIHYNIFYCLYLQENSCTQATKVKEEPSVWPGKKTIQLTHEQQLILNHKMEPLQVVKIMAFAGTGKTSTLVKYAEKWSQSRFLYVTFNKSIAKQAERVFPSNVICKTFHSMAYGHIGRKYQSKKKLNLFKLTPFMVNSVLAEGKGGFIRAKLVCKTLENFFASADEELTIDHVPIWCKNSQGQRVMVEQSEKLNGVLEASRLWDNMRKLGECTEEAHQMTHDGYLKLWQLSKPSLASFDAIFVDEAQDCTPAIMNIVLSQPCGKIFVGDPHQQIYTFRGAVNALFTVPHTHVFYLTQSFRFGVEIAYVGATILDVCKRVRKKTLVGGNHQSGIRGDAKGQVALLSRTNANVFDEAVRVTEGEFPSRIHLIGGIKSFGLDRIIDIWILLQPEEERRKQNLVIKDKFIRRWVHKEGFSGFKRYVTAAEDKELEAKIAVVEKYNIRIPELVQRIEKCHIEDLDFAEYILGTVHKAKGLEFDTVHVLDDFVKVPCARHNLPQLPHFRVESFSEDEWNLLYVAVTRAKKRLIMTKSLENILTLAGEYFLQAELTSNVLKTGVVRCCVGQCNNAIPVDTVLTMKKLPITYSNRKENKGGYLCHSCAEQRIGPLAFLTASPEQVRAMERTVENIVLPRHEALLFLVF
Sequence of UniProt O95166 (whole entry, looked up): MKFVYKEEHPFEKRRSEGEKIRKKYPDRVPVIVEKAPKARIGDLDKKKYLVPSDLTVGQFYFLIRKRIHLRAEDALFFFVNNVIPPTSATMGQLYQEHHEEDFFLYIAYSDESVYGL
Sequence of UniProt Q8IY67 (whole entry, looked up): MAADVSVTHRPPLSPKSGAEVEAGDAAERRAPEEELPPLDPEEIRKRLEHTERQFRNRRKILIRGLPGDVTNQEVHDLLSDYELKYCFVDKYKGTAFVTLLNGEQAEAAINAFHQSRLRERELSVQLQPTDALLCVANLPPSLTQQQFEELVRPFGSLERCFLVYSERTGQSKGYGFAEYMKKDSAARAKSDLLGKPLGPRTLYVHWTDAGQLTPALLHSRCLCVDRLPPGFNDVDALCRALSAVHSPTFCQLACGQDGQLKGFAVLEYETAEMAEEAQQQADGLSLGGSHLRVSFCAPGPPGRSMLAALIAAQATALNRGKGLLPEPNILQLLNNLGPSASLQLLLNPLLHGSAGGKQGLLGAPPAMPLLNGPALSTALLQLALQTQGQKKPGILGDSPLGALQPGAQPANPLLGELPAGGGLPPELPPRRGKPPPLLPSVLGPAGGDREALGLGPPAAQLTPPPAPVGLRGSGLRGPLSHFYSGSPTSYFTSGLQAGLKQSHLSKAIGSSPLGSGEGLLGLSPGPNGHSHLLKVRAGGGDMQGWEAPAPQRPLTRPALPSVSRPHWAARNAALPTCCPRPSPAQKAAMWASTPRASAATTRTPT

Molecule | target or system | assay | system | conditions | measurement | value
rhodamine-QEELII (Cdh5 779-784 (Mus musculus); reading uncertain; N-terminal rhodamine; rhodamine = not defined here) | Pard3 581-689 (Mus musculus, UniProt Q99NH2) | fluorescence polarisation | peptide | 100 nM, pH 7.4, 298 K, NaCl 100 mM | Kd | 28 µM
B1 (POL30) | REV1/RAD30 binary complex, Cy5 label (Saccharomyces cerevisiae) | single-molecule TIRF | – | 1 nM | Kd | 0.01 µM
KTLMGNPWFQRAKMPRALDFSGHTHPVATFQPSRPESVND (IFNLR1 250-289 (Homo sapiens, UniProt Q8IU57); sequence looked up) | JAK1 35-559 (Homo sapiens, UniProt P23458) | BLI | peptide | apparent, effective Kd | Kd | 1.57 µM
KHKILHRLLQDSS (NCOA2 residues 686-698 (Mus musculus)) | RXRA LBD 223-462 (Homo sapiens, UniProt P19793) | ITC | peptide | pH 8.0, 37 °C, single-site fit, with: 9cRA | Kd | 1 ± 0.05 µM
VKKATATTTWMVPTAQ (L3MBTL3 55-70 (Homo sapiens, UniProt Q96JM7-2); sequence looked up) | Rbpj 53-474 (Mus musculus, UniProt P31266) | ITC | peptide | pH 6.5, 25 °C, NaCl 150 mM, one site model | Kd | 0.53 µM
B2 (UGT1A9) | O=c1cc(-c2ccc(O)cc2)oc2ccccc12 | steady-state kinetics | – | pH 7.4, 37 °C | Vmax | 9.87e-05 µmol/min/mg
RAD51 (Homo sapiens, UniProt Q06609) | FBH1, polyubiquitinated (Homo sapiens, UniProt Q8NFZ0) | single-molecule TIRFM | – | apparent, with: ATP 1 mM | Kd | 0.016 ± 0.0045 µM
B3 (ATG3 residues 24-88, 192-314) | GABARAP 1-116 (Homo sapiens, UniProt O95166) | NMR | – | – | Kd | 1300 ± 300 µM
CGA/FSHB mature, N-linked glycans (Equus caballus) (sequence not shown) | FSHR (Homo sapiens, UniProt P23945) | SPR | HEK293, membranes | – | Kd | 0.0014 µM
B4 (VCL 879-1066) | RAVER1 39-321 (Homo sapiens, UniProt Q8IY67) | ITC | – | pH 8, 23 °C, NaCl 150 mM | Kd | 12.6 µM
chlD N-terminal AAA+ domain (Synechocystis) (sequence not shown) | chlI C244S, Alexa Fluor 488 label (Synechocystis) | MST | – | pH 7.8, 20 °C, with: MgADP 3 mM | Kd | 1.36 ± 0.2 µM

A few entries again:
Molecule | target or system | assay | system | conditions | measurement | value
KHKILHRLLQDSS (NCOA2 residues 686-698 (Mus musculus)) | RXRA LBD 223-462 (Homo sapiens, UniProt P19793) | ITC | peptide | pH 8.0, 37 °C, single-site fit, with: 9cRA | Kd | 1 ± 0.05 µM
